# Measurements gathered from unrelated publications.
# Lines come from different studies, so protocols differ. ± gives the spread as reported.
# Chain of UniProt G5EFZ1 (whole entry, looked up): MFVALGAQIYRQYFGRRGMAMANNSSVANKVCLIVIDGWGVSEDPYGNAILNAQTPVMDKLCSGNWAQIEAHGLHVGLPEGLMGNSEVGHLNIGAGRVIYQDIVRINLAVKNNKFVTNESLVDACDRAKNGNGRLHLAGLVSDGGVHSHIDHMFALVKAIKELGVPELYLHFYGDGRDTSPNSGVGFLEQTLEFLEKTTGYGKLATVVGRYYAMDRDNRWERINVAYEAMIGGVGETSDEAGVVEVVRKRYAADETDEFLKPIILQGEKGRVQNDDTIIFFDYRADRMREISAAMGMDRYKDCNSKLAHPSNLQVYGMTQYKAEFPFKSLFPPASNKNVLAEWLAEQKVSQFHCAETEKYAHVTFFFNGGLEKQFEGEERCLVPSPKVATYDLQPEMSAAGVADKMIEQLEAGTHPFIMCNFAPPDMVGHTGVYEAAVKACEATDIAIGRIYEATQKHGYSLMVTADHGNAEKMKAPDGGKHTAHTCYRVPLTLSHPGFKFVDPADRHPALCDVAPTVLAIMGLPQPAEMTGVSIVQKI
# Chain of UniProt P21729 (whole entry, looked up): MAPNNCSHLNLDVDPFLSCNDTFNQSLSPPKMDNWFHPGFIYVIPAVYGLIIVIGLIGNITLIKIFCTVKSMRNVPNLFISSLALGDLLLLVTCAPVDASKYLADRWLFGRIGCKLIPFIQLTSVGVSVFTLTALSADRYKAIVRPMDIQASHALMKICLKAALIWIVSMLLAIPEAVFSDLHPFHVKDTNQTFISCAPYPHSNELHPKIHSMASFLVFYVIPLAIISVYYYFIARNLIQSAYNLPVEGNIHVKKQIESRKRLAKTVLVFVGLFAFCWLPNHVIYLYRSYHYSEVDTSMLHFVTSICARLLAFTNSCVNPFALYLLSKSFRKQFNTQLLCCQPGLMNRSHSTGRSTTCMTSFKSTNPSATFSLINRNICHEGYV
SMILES,target or system,test,system,setting,how to read,quantity,result
COC(=O)C[C@](O)(CCCC(C)(C)OC(C)=O)C(=O)O[C@@H]1C(OC)=C[C@]23CCCN2CCc2cc4c(cc2[C@H]13)OCO4,,,"CD1 mouse, plasma","oral, 1 mg/kg, 0.5 h",,concentration,615 ng/mL
C[C@@H](O)[C@H](NC(=O)[C@H](CCC(=O)O)NC(=O)[C@H](Cc1ccccc1)NC(=O)[C@H](Cc1c[nH]c2ccccc12)NC(=O)[C@H](CCCCN)NC(=O)[C@H](CCCCN)NC(=O)[C@H](CCCCN)NC(=S)Nc1ccc2c(c1)C(=O)OC21c2ccc(O)cc2Oc2cc(O)ccc21)C(=O)N[C@@H](Cc1c[nH]c2ccccc12)C(=O)N[C@@H](Cc1ccccc1)C(=O)N[C@H](C(=O)N[C@@H](CCC(=O)O)C(=O)N[C@@H](Cc1c[nH]c2ccccc12)C(=O)N1CCC[C@H]1C(=O)N[C@@H](CCCCN)C(=O)N[C@@H](CCCCN)C(=O)N[C@@H](CCCCN)C(=O)N[C@@H](CCCCN)C(=O)O)[C@@H](C)O,,,gelatin hydrogel 100 mg/mL,"56.6 µg loaded, 72 h, no cross-linker, with: PBS",,peptide release,36.7 µg
CC[C@H](C)[C@H](NC(=O)CNC(=O)[C@H](Cc1ccccc1)NC(=O)[C@H](CCCCN)NC(=O)[C@H](CCCCN)NC(=O)[C@H](CCCNC(=N)N)NC(=O)[C@H](CCCNC(=N)N)NC(=O)[C@H](CCCNC(=N)N)NC(=O)[C@H](CCC(N)=O)NC(=O)[C@H](CCCNC(=N)N)NC(=O)[C@H](CCCNC(=N)N)NC(=O)[C@H](CCCCN)NC(=O)[C@H](CCCCN)NC(=O)[C@H](CCCNC(=N)N)NC(=O)CNC(=O)[C@@H](N)Cc1ccc(O)cc1)C(=O)N[C@H](C(=O)N[C@@H](CC(N)=O)C(=O)N[C@@H](CO)C(=O)N[C@@H](CCC(N)=O)C(=O)N[C@@H](CC(C)C)C(=O)N[C@@H](CCCCN)C(=O)N1CCC[C@H]1C(=O)O)[C@@H](C)O,,derivative UV-vis spectrophotometry,DMPC:Chol:SM large unilamellar vesicles vs PBS,"30 min, pH 7.4, 37 °C, lipid ratio 75:15:10",,logD,3.7 ± 0.13
CSCC[C@@H]1NC(=O)[C@@H]2CSSC[C@H](NC(=O)[C@H](CO)NC(=O)[C@H](C)N)C(=O)N[C@@H](CCCNC(=N)N)C(=O)N[C@@H]([C@@H](C)O)C(=O)N3CCC[C@H]3C(=O)N[C@@H](CCCCN)C(=O)N[C@@H](CC(=O)O)C(=O)N[C@H]3CSSC[C@H](NC(=O)[C@H](CCCCN)NC(=O)[C@H](CCCNC(=N)N)NC(=O)[C@H](CC(N)=O)NC1=O)C(=O)N[C@@H](CCCCN)C(=O)N[C@H]1CSSC[C@H](NC(=O)[C@@H]4CCCN4C(=O)[C@H](CC(=O)O)NC(=O)[C@H](C)NC3=O)C(=O)N[C@@H](C)C(=O)N[C@@H](CCCCN)C(=O)N[C@@H](CCC(=O)O)C(=O)N[C@@H]([C@@H](C)O)C(=O)NCC(=O)N[C@@H](CSSC[C@@H](C(N)=O)NC(=O)[C@H](CCCNC(=N)N)NC(=O)[C@H](CC(N)=O)NC1=O)C(=O)N1CCC[C@H]1C(=O)N[C@@H](Cc1ccc(O)cc1)C(=O)NCC(=O)N[C@@H](CCCCN)C(=O)N2,,,"DA rat, pristane-induced arthritis, serum","subcutaneous, 0.1 mg/kg once weekly, end of 21-day trial",,ALT,59.6 U/L
CC1=CC(C)(C)N=C2C=CC(=O)C=C12,,,"female Wistar Han rats, stomach","oral, 2 days",,dose with stomach alterations,≥ 175 mg/kg/day
CCCC[C@H](NC(=O)CNC(=O)CNC(=O)c1ccc(NN)nc1)C(=O)N[C@H]1CC(=O)NCCCC[C@@H](C(N)=O)NC(=O)[C@H](Cc2c[nH]c3ccccc23)NC(=O)[C@H](CCCNC(=N)N)NC(=O)[C@@H](Cc2ccccc2)NC(=O)[C@H](Cc2c[nH]cn2)NC1=O [technetium-99m labelled],,,"C57 mouse, B16/F1 melanoma-bearing","intravenous, 4 h",relative to: tumour over blood,tissue uptake ratio,110
CN[C@](C)(C[18F])C(=O)O,DU-145 tumour model,,"host not given, heart","15 min, tumour-bearing",,tracer uptake,2.6 %ID/g
CC(=O)O[C@H]1CC[C@]2(C)[C@H]3C[C@@H](OC(C)=O)[C@]4(C)[C@@H](C5=CC(=O)OC5)CC[C@]4(O)[C@@H]3CC[C@@]2(N)C1,,,,pH 7.4,,logD,0.817
C/C=C/C=C/C/C=C/CCCCCCCc1cccc(O)c1O,,,"female Kunming mice, tumour-bearing, kidneys","intravenous, 10 mg/kg, 12 h",,tissue concentration,1320 ± 390 ng/g
CC(C)C[C@H](NC(=O)[C@H](CCCCN)NC(=O)[C@H](CCC(=O)O)NC(=O)[C@H](C)NC(=O)[C@@H](NC(=O)[C@H](CCCCN)NC(=O)[C@H](CC(=O)O)NC(=O)[C@H](Cc1ccc(O)cc1)NC(=O)[C@H](Cc1ccccc1)NC(=O)[C@H](C)NC(=O)[C@H](CCCCN)NC(=O)[C@H](CC(C)C)NC(=O)[C@H](Cc1c[nH]c2ccccc12)NC(=O)[C@@H](N)CC(=O)O)C(C)C)C(=O)N[C@@H](CCCCN)C(=O)N[C@@H](CCC(=O)O)C(=O)N[C@@H](C)C(=O)N[C@@H](Cc1ccccc1)C(=O)N1CCC[C@H]1C(=O)N[C@@H](CC(=O)O)C(=O)N[C@@H](Cc1c[nH]c2ccccc12)C(=O)N[C@@H](C)C(=O)N[C@@H](CCCCN)C(=O)N[C@@H](C)C(=O)N[C@@H](C)C(=O)N[C@@H](Cc1ccc(O)cc1)C(=O)N[C@@H](CC(=O)O)C(=O)N[C@@H](CCCCN)C(=O)N[C@@H](C)C(=O)N[C@@H](C)C(=O)N[C@@H](CCC(=O)O)C(=O)N[C@@H](CCCCN)C(=O)N[C@@H](C)C(=O)N[C@@H](CCCCN)C(=O)N[C@@H](CCC(=O)O)C(=O)N[C@@H](C)C(=O)N[C@@H](C)C(=O)O,,,"cynomolgus monkey male, plasma","intravenous infusion, 75 mg/kg every other day, day 27",,volume of distribution at steady state,0.057 L/kg
CCCNC(=O)[C@H](CC(C)C)NC(=O)[C@H](Cc1c[nH]cn1)NC(=O)CNC(=O)[C@@H](NC(=O)[C@H](C)NC(=O)[C@H](Cc1c[nH]c2ccccc12)NC(=O)[C@H](CCC(N)=O)NC(=O)[C@@H](Cc1ccccc1)NC(=O)CCCCCNC(=O)CN1CCN(CC(=O)O)CCN(CC(=O)O)CCN(CC(=O)O)CC1)C(C)C [indium-111 labelled],"Gastrin-releasing peptide receptor (Mus musculus, UniProt P21729)",biodistribution,"CF-1 mice, blood","intravenous, 1 h, with: bombesin 100 µg, blocking",,tissue uptake,0.24 ± 0.02 %ID/g
CC(C)[C@@H]1NC(=O)[C@H](CCCNC(=N)N)NC(=O)[C@H](Cc2ccc(O)cc2)NC(=O)[C@H](CO)NC(=O)[C@H](Cc2ccc(O)cc2)N(C)C(=O)[C@H](CC(N)=O)NC(=O)CNC(=O)[C@H](Cc2ccc(O)cc2)N(C)C(=O)[C@H](Cc2ccccc2)N(C)C(=O)[C@H](CC(=O)O)NC(=O)[C@H](Cc2ccc(O)cc2)NC(=O)[C@H](Cc2ccccc2)N(C)C(=O)[C@H](Cc2ccc(O)cc2)N(C)C(=O)[C@H](Cc2ccc(O)cc2)NC(=O)CSC[C@@H](C(N)=O)NC(=O)[C@@H]2CCCN2C1=O,"ipgm-1 (Caenorhabditis elegans, UniProt G5EFZ1)",enzyme activity,,,,AC50,933 nM
N=C(N)NCc1ccc(C(=O)NCCCC[C@H](NC(=O)N[C@@H](CCC(=O)O)C(=O)O)C(=O)O)cc1[131I],,,"SCID mouse, PC-3 xenografts, lungs",2 h,,tissue uptake,1.06 ± 0.15 %ID/g
CC[C@@H]1C[C@]1(NC(=O)[C@@H]1C[C@@]2(CN1C(=O)[C@@H](NC(=O)[C@@H](NC(=O)[C@@H]1CCCCN1C(C)C)C1CCCCC1)C(C)(C)C)C(C)(C)C21CCC1)C(=O)NS(=O)(=O)N1CCCC1,,,human,"oral, dose not given, with: ritonavir 100 mg",relative to: without ritonavir,fold increase in exposure,≤ 60 fold
N=C(N)NCCC[C@@H]1NC(=O)[C@H](CCCCNC(=O)CCOCCOCCOCCOCCNC(=O)CN2CCN(CC(=O)O)CCN(CC(=O)O)CCN(CC(=O)O)CC2)NC(=O)[C@@H](Cc2ccccc2)NC(=O)[C@H](CC(=O)O)NC(=O)CNC1=O [indium-111 labelled],,,"athymic nude mice, female, U-87 MG glioma xenograft, tumour and kidney","intravenous, 72 h",relative to: tumour over kidney,tumour to tissue ratio,0.67 ± 0.15

# A few entries again:
SMILES,target or system,test,system,setting,how to read,quantity,result
CC[C@@H]1C[C@]1(NC(=O)[C@@H]1C[C@@]2(CN1C(=O)[C@@H](NC(=O)[C@@H](NC(=O)[C@@H]1CCCCN1C(C)C)C1CCCCC1)C(C)(C)C)C(C)(C)C21CCC1)C(=O)NS(=O)(=O)N1CCCC1,,,human,"oral, dose not given, with: ritonavir 100 mg",relative to: without ritonavir,fold increase in exposure,≤ 60 fold
